{"data": "Published values collected from several papers", "note": "Parts stem from different laboratories: compare values within a part only."}
{"data": "Study 1", "target": "Histone acetyltransferase KAT6A, winged helix 1, GST fusion (KAT6A, Homo sapiens, UniProt Q92794, residues 1-85)", "method": "protein binding microarray", "form": "double-stranded DNA, one strand shown", "sample": "in vitro", "concentration": "not given", "setting": "8-mer, flanks averaged, mean of 2 arrays, mostly near background", "reference": "not given", "reading": "higher = stronger binding", "Residues (chain)": "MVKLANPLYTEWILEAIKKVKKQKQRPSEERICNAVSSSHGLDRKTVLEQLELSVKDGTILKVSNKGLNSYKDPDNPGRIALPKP"}
{"Strand": "AATCTTCT", "E-score": -0.0683}
{"Strand": "GGAACAAA", "E-score": -0.189}
{"Strand": "TATCGGCA", "E-score": 0.134}
{"Strand": "CCCCTACG", "E-score": -0.00581}
{"Strand": "CAAGTTAA", "E-score": -0.2}
{"Strand": "GGAGAGCA", "E-score": -0.159}
{"Strand": "ATGGATGC", "E-score": -0.135}
{"Strand": "AAATAGCA", "E-score": -0.136}
{"Strand": "TCGCTGCA", "E-score": 0.0751}
{"Strand": "GATGGCCA", "E-score": -0.0322}
{"Strand": "GCTATAAC", "E-score": 0.0625}
{"Strand": "CCATCGAA", "E-score": -0.18}
{"Strand": "CACTCTAG", "E-score": -0.0858}
{"Strand": "GAGGACTA", "E-score": 0.06}
{"Strand": "CGTAACCC", "E-score": 0.376}
{"Strand": "ATCCATTA", "E-score": -0.154}
{"Strand": "GCGGCGTA", "E-score": 0.403}
{"Strand": "GCCCTGCC", "E-score": 0.0605}
{"Strand": "CGCCCCGC", "E-score": 0.367}
{"Strand": "TCGCGCGA", "E-score": 0.401}
{"Strand": "ACCGTAAC", "E-score": 0.233}
{"Strand": "CAAGGAAA", "E-score": -0.13}
{"Strand": "AACGCGCC", "E-score": 0.358}
{"Strand": "ACAGTACA", "E-score": -0.111}
{"Strand": "ACCGTCCG", "E-score": 0.343}
{"data": "Study 2", "target": "RING finger protein unkempt homolog, zinc fingers 1-6, GST-SBP tag (UNK, Homo sapiens, UniProt Q9C0B0, residues 30-357)", "method": "RNA Bind-n-Seq", "form": "RNA", "sample": "in vitro", "concentration": "not given", "setting": "RNA with constant flanks, human-mouse chimeric sites, ends assumed", "reference": "input RNA pool", "reading": "higher = stronger binding", "constant ends, left off below": "GGGAGUUCUACAGUCCGACGAUC … CAACAGAGGAUUGAGCAUCA", "chain of UniProt Q9C0B0 (30-357, looked up)": "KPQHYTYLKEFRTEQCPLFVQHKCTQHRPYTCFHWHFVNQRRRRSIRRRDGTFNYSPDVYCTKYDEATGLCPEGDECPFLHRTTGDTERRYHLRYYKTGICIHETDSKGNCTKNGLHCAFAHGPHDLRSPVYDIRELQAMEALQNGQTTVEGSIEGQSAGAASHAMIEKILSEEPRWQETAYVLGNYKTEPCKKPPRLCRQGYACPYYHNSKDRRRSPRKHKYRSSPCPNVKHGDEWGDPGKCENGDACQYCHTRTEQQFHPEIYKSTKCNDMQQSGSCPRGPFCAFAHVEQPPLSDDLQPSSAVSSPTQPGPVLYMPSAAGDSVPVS"}
{"Strand": "CCAAUUGUGGAGCAGUACUUGAAGACAAAGAAAAAUUCUAGUCAUUUAAUCAUGAAAUACAUUAGCUGCCGCCUGCUGACACUCAUCAUUAUACUGUUAGCGUGUAUCUACCUGGGCUAU", "bound/input enrichment [ratio]": 0.823}
{"Strand": "AGAUUCCCCCUCCUGAGGCCUUCUCCAAAGUUGGAGUCUCUUACAGAUGCCUCAUCCCCUGUUAGCGUUUUAGUUUGGACCACCCAGCCUUGGACAAUUCCCGCCAAUGAAGCUGUUUGC", "bound/input enrichment [ratio]": 2.55}
{"Strand": "GGAAGUACAAUGAUGGAGAUUGAUGGUGACAAAGGCAAGCAGGGCGGUCCCACCUACUACAUAGACACCAAUGCCCUCCGCGUGCCCAGGGAGAACAUGGAGGCCAUCUCACCACUCAAG", "bound/input enrichment [ratio]": 0.267}
{"Strand": "AGAUUCCCUCUCUUAAAACCUCCUCCGAAGUUGGAGUCUCUUACAGAUGCCUCAUCCCCUGUUAGCGUUUUAGUUUGGACCACCCAGCCUUGGACAAUUCCCGCCAAUGAAGCUGUUUGC", "bound/input enrichment [ratio]": 2.31}
{"Strand": "UUACUUUUGACUCCCUGGGUCAAGUUCCUGUGGGAGUCAUACAGGCAGUGUUUGGACCUUCUUCGAAACAAUUCUAGAGUAGAGCGCCUUUACCAUGAUAUCGCCCAACAAGCUUUCAAA", "bound/input enrichment [ratio]": 0.159}
{"Strand": "UUGUCGAAGACUCAACGAAAGACUCCAACGGUUAUUCAUAAACAUUACCAAAUACAUCGGAUUCGACAUUUUUAUAUGAGAAAAGUCAAAUUUACUCAACAGAAUUACCAUGACAGACUG", "bound/input enrichment [ratio]": 0.25}
{"Strand": "AGAGAAAUGAGAAAGAAUCUUACACAAGAUGAGAUGCAAAGAAUGUCUACUAGAGUCCUUUUGGCGACUCUUUCCAUUCCUAUUACUCCUGAGCGUACUGAUAUUGCUCGACUUUUGGAU", "bound/input enrichment [ratio]": 0.102}
{"Strand": "UUUGUAUUUAUGCUAAGCACACGUGCUGGUGGUCUUGGCAUCAAUCUUGCGACUGCUGAUGUAGUCAUUUUAUAUGACUCAGAUUGGAAUCCGCAAGUUGAUCUUCAGGCUAUGGACCGU", "bound/input enrichment [ratio]": 0.146}
{"Strand": "UCAUUUUUCUCUUUUCUUUCUUUCCUUUAGGAAAAGCCUAAAGAUUAGGUUGUAAGAAAAACAGAAGCCAUGUUUCGAAGACCUGUAUUACAGGUAUUUCGUCAGUUUGUAAGACAUGAG", "bound/input enrichment [ratio]": 0.186}
{"Strand": "CUGGCCUGGCCCUCCCCAGGGGCCUCCUUUCGUAUAGUCACUGCUUCUGCUACGGAUACUUUCAGCUGCAACUCCCUACUGGGUGGGGCACCCAUUUCAGGCAGAAGGUUUUGGUACCCU", "bound/input enrichment [ratio]": 0.229}
{"Strand": "AGAAUCUUGGGACUGUUUUGCUUGAUUGGUCAUUGAUAUCUCAACAAACAUGGAGAUAAGAUUAGAAAUCUUGACAUCAACAGGUAUUAAGCAGAAAAAACCAUGGCCACGUGUCUCCUG", "bound/input enrichment [ratio]": 0.141}
{"data": "Study 3", "target": "Prothrombin, mature alpha-thrombin (F2, Homo sapiens, UniProt P00734)", "method": "aptamer microarray, sandwich", "form": "DNA with 2'F-ANA", "sample": "in vitro", "concentration": "200 nM", "setting": "whole 15-mer aptamer, many near background", "together with": "Cy3 exosite-II aptamer, 400 nM", "reading": "higher = stronger binding", "strand": "GGTTGGTGTGGTTGG"}
{"Modification": "2'F-ANA at 1 3 6 7 9 10 11 12 13 14", "mean fluorescence intensity": "59 a.u."}
{"Modification": "2'F-ANA at 1 3 4 11 12", "mean fluorescence intensity": "388 a.u."}
{"Modification": "2'F-ANA at 2 4 7 9 10 11 12 15", "mean fluorescence intensity": "117 a.u."}
{"Modification": "2'F-ANA at 2 4 6 8 10 11 15", "mean fluorescence intensity": "72.8 a.u."}
{"Modification": "2'F-ANA at 4 6 9 10 15", "mean fluorescence intensity": "72.8 a.u."}
{"Modification": "2'F-ANA at 4 5 8 11 13 14 15", "mean fluorescence intensity": "44.3 a.u."}
{"Modification": "2'F-ANA at 4 5 6 7 8 11 12 14", "mean fluorescence intensity": "48.1 a.u."}
{"Modification": "2'F-ANA at 7 15", "mean fluorescence intensity": "682 a.u."}
{"Modification": "2'F-ANA at 1 7 8 10 11 12 13 14", "mean fluorescence intensity": "72.3 a.u."}
{"Modification": "2'F-ANA at 1 4 6 12 13", "mean fluorescence intensity": "183 a.u."}
{"Modification": "2'F-ANA at 1 3 4 5 6 7 10 12 13", "mean fluorescence intensity": "49.7 a.u."}
{"Modification": "2'F-ANA at 2 4 6 7 9 10 11 13 14 15", "mean fluorescence intensity": "87.3 a.u."}
{"Modification": "2'F-ANA at 1 3 4 5 7 10 12 14", "mean fluorescence intensity": "43.8 a.u."}
{"Modification": "2'F-ANA at 1 2 3 8 11 12 14", "mean fluorescence intensity": "97 a.u."}
{"Modification": "2'F-ANA at 4 9 10 11 12", "mean fluorescence intensity": "129 a.u."}
{"Modification": "2'F-ANA at 4 7 8 9 11 12", "mean fluorescence intensity": "456 a.u."}
{"Modification": "2'F-ANA at 8 10 11 12 15", "mean fluorescence intensity": "170 a.u."}
{"Modification": "2'F-ANA at 4 6 8 10 14", "mean fluorescence intensity": "54.9 a.u."}
{"Modification": "2'F-ANA at 2 3 5 8 12 14", "mean fluorescence intensity": "62.8 a.u."}
{"Modification": "2'F-ANA at 1 2 3 6 7 8 9 11 14 15", "mean fluorescence intensity": "71.2 a.u."}
{"Modification": "2'F-ANA at 4 5 6 11", "mean fluorescence intensity": "57.3 a.u."}
{"Modification": "2'F-ANA at 5 6 8 10 11 14 15", "mean fluorescence intensity": "53.6 a.u."}
{"Modification": "2'F-ANA at 2 3 7 10 11 15", "mean fluorescence intensity": "372 a.u."}
{"Modification": "2'F-ANA at 2 6 9 10 11 13 14 15", "mean fluorescence intensity": "75.3 a.u."}
{"Modification": "2'F-ANA at 1 5 6 7 9 10 11 13 14", "mean fluorescence intensity": "44.5 a.u."}
{"data": "Study 4", "target": "Ras GTPase-activating protein-binding protein 1, full length (G3BP1, Homo sapiens, UniProt Q13283)", "method": "RNA Bind-n-Seq", "form": "RNA", "sample": "in vitro", "concentration": "200 nM", "setting": "whole 134-nt RNA, ends assumed", "together with": "150 mM LiCl", "reference": "input library", "reading": "higher = stronger binding", "all molecules": "7-deaza-guanosine replaces G", "constant ends, left off below": "GGGAGUUCUACAGUCCGACGAUC … UGGAAUUCUCGGGUGUCAAGG", "chain of UniProt Q13283 (whole entry, looked up)": "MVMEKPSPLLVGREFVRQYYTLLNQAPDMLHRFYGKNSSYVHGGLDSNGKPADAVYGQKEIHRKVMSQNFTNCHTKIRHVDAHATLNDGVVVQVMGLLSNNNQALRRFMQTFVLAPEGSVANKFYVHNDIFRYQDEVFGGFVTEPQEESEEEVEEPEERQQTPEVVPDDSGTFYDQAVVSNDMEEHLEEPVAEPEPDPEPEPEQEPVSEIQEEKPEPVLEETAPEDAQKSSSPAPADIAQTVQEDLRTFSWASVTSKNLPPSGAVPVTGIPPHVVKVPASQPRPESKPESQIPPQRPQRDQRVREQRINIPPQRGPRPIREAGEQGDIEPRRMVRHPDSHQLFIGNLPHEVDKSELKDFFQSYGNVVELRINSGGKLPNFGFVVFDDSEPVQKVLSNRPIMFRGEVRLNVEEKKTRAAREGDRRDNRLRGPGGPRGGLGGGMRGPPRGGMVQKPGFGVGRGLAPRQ"}
{"Strand": "UGUGGAGGAGACGGCCGACUCGACGCUGUGCCACAUCCUGAACCUGUACCGGCGGGCCACCUGGCUGCACCAGGCGCUGCGGGAGGGCAC", "log2 enrichment": -0.683}
{"Strand": "AGUCCUGUGCUACACAUCGUAUGUACCGAAUCAAAUUUUUUUAAACCCAAACCCAAAAAAGUAUUAUGUUACGCCGUUCGGAUCUGCACU", "log2 enrichment": 1.18}
{"Strand": "UGUGCUACACAUCGUAUGUACCGAAUCGGGAAAAAAAGGGGAAAAAAAGGGAAAAAAAGGGGAAAGUAUUAUGUUACGCCGUUCGGAUCU", "log2 enrichment": 0.32}
{"Strand": "UGGCCCUGGUGGCAUGCGGGAAGGAAGAGGUGGCCUCAUGGAUCGUGGUGGUCCCGGUGGAAUGUUCAGAGGUGGCCGUGGUGGAGACAG", "log2 enrichment": 0.377}
{"Strand": "ACCAUGCAGGUGGGCAUCUUUGGGAAGUGGGGCAAGGGGGGGAUAGGGAGGGGGGUAACAUUUUGGGAACAGGUGGUCCCAGGUCGUUUC", "log2 enrichment": 0.145}
{"Strand": "AACACUCAAACCACCAUCAAGCUUUUCCAGGAAUGCUGUCCUCAUUCCACUGACAGAGUUGUUCUUAUUGGAGGAAAACCCGAUAGGGUU", "log2 enrichment": 1.23}
{"Strand": "CACAGACAACACGCACCCACACAGACACAGAGGGAAGGGGUUGGGAUGGGGACAGGGUGCACAGCAGGGCGGGGUAGGACCCGAGCCCCU", "log2 enrichment": -0.889}
{"Strand": "UCAAUGCCGGCUAUGCCCUGGCCCCAGCCACCAGUGCCAACGACAGCGAGCAGCAGAGCCUGUCCAGCGAUGCAGACACCCUGUCCCUCA", "log2 enrichment": -1.19}
{"Strand": "UGUGCUACACAUCGUAUGUACCGAAUCGGGGAAAAAAAGGAAAAAAAGGGGAAAAAAAGGGGAAAGUAUUAUGUUACGCCGUUCGGAUCU", "log2 enrichment": 0.397}
{"Strand": "UGGGAGGUGGAUUUUGUUUAUUUUUUUAGCUUAUUUCCAGGGGUGGGAAUUUUUUUUUAAUAUGUGUCAUGAAUAAAGUUGUUUUUGAAA", "log2 enrichment": 0.127}
{"Strand": "ACCAUGCAGGUGGGCAUCUUUGGGAAGUGGGGCAAGGAGGGGAUAGGGAGGGGGGUAACACUUUGGGAACAGGUGGUCCCAGGUCGUUUC", "log2 enrichment": 0.442}
{"note": "For quick reference, copied from above (study 4):"}
{"Strand": "ACCAUGCAGGUGGGCAUCUUUGGGAAGUGGGGCAAGGGGGGGAUAGGGAGGGGGGUAACAUUUUGGGAACAGGUGGUCCCAGGUCGUUUC", "log2 enrichment": 0.145}
{"Strand": "UCAAUGCCGGCUAUGCCCUGGCCCCAGCCACCAGUGCCAACGACAGCGAGCAGCAGAGCCUGUCCAGCGAUGCAGACACCCUGUCCCUCA", "log2 enrichment": -1.19}
{"Strand": "AGUCCUGUGCUACACAUCGUAUGUACCGAAUCAAAUUUUUUUAAACCCAAACCCAAAAAAGUAUUAUGUUACGCCGUUCGGAUCUGCACU", "log2 enrichment": 1.18}
{"Strand": "UGGCCCUGGUGGCAUGCGGGAAGGAAGAGGUGGCCUCAUGGAUCGUGGUGGUCCCGGUGGAAUGUUCAGAGGUGGCCGUGGUGGAGACAG", "log2 enrichment": 0.377}
{"Strand": "UGUGGAGGAGACGGCCGACUCGACGCUGUGCCACAUCCUGAACCUGUACCGGCGGGCCACCUGGCUGCACCAGGCGCUGCGGGAGGGCAC", "log2 enrichment": -0.683}
